Experimental data collected from several papers.
Every numbered part comes from another study and shows a few of its results, in no order. Changes are numbered by the printed parent chain.

Block 1
Target: Histone acetyltransferase KAT6A, winged helix 1, GST fusion (KAT6A, Homo sapiens, UniProt Q92794, residues 1-85)
Method: protein binding microarray
Molecule type: double-stranded DNA, one strand shown
Matrix: in vitro
Concentration: not given
Setting: 8-mer, flanks averaged, mean of 2 arrays, mostly near background
Baseline: not given
Reading: higher = stronger binding
Residues (chain): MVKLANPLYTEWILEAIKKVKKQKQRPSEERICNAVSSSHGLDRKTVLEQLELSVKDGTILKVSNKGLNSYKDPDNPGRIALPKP
Strand | E-score
TAATACCA | 0.00456
CGCCGCTA | 0.429
CTTTAGTA | -0.0516
ATTCAAAG | -0.169
ATAGGCAA | -0.183
CCTAGGGA | -0.198
CATGCTAC | -0.0811
GCATAGCA | -0.101
ATCTCCAT | -0.245
GCTTACCC | -0.0483
ATAATTAT | -0.0561
CTTGTCCC | 0.191
CCTCTGAC | -0.109
TATTAGAA | -0.208

Block 2
Target: Prothrombin, mature alpha-thrombin (F2, Homo sapiens, UniProt P00734)
Method: aptamer microarray, sandwich
Molecule type: DNA with 2'F-ANA
Matrix: in vitro
Concentration: 200 nM
Setting: whole 15-mer aptamer, many near background
Added: Cy3 exosite-II aptamer, 400 nM
Reading: higher = stronger binding
Strand: GGTTGGTGTGGTTGG
Modification | mean fluorescence intensity [a.u.]
2'F-ANA at 2 3 4 5 6 7 9 10 13 15 | 49.8
2'F-ANA at 2 3 5 6 7 8 10 11 12 13 14 15 | 53.3
2'F-ANA at 2 4 5 7 8 10 15 | 46.2
2'F-ANA at 3 5 7 | 145
2'F-ANA at 2 4 7 10 | 112
2'F-ANA at 3 5 8 9 10 11 12 14 | 55.5
2'F-ANA at 1 2 5 6 8 9 15 | 77
2'F-ANA at 3 4 6 10 12 13 | 280
2'F-ANA at 1 3 5 6 7 8 9 10 15 | 47.4
2'F-ANA at 2 3 5 7 9 10 12 14 15 | 52
2'F-ANA at 4 7 8 9 13 14 | 93.2
2'F-ANA at 1 3 4 6 7 8 11 13 | 157
2'F-ANA at 1 3 6 7 8 9 10 11 14 15 | 126
2'F-ANA at 2 4 7 8 12 13 15 | 552

Block 3
Target: CCNB1, cyclin fold, Cln2 fusion (human)
Method: yeast growth competition, sequencing
Matrix: yeast
Setting: weak parent motif
Baseline: not given
Reading: higher = stronger binding
Starting sequence: ORC1 docking peptide (human); PRARKRLELGNLG
Change | normalised enrichment score
K5T | 0.0496
L12A | 1.06
A3C | 1.5
G10I | 0.682
G13D | 1.09
P1N | 0.675
K5R L9F | 0.598
G13K | 0.915
A3S | 0.895
E8H | 0.396
R4M | 0.769
L12R | 0.405
L12C | 0.497
R2P | 0.997
L7G | 0.204
P1T | 0.827
R4S | 0.0536
E8V | 0.9

Block 4
Target: Ras GTPase-activating protein-binding protein 1, full length (G3BP1, Homo sapiens, UniProt Q13283)
Chain of UniProt Q13283 (whole entry, looked up): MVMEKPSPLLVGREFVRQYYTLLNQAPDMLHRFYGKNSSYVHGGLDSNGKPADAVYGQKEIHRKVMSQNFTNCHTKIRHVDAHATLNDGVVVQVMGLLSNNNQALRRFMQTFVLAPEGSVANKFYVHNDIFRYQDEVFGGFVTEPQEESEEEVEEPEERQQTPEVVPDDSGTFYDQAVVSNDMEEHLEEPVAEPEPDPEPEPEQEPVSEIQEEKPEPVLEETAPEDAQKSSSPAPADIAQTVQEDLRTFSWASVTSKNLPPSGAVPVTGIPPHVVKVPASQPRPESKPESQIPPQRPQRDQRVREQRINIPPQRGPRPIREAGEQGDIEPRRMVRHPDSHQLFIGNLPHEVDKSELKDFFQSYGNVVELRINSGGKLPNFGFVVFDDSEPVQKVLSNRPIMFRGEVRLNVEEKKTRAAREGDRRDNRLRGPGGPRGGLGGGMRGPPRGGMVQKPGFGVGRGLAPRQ
Method: RNA Bind-n-Seq
Molecule type: RNA
Matrix: in vitro
Concentration: 200 nM
Setting: whole 134-nt RNA, ends assumed
Added: 150 mM LiCl
Baseline: input library
Reading: higher = stronger binding
Each molecule: 7-deaza-guanosine replaces G
Constant ends, left off below: GGGAGUUCUACAGUCCGACGAUC … UGGAAUUCUCGGGUGUCAAGG
Strand | log2 enrichment
CUCAAGUCCUGUGCUACACAUCGUAUGUACCGAAUCGGUGGUUUGGAAAAAGGAAAGUAUUAUGUUACGCCGUUCGGAUCUGCACUUCCA | 0.016
UCUCAGCAGGCGCAUCUACACUAGUGACCUGAGGAGAGAAACCCUAACCCCACAAUGGCUGCAUCUUCUCUGAAGACGAGACUGAUGCUC | 1.23
CAAGUCCUGUGCUACACAUCGUAUGUACCGAAUCAAAUUUAAACCCAAAUUUAAAAAAGUAUUAUGUUACGCCGUUCGGAUCUGCACUUC | -0.887
CUCAAGUCCUGUGCUACACAUCGUAUGUACCGAAUCGGAAGGGGAAGGGAAGGAAAGUAUUAUGUUACGCCGUUCGGAUCUGCACUUCCA | -0.241
AAGUCCUGUGCUACACAUCGUAUGUACCGAAUCGGGAAAAAGGGUGGGUUUUUGGGAAAGUAUUAUGUUACGCCGUUCGGAUCUGCACUU | -1.29
UACCCUCGUGCCCCUGUUUUUCCUGGCCGUGGUAGUUACUCAAACAGAGGGAACUACAACAGAGGUGGAAUGCCCAACAGAGGGAACUAC | -1.01

Block 5
Target: Centromere-binding protein 1, full length, N-terminal tag (CBF1, Saccharomyces cerevisiae, UniProt P17106, residues 1-351)
Chain of UniProt P17106 (whole entry, looked up): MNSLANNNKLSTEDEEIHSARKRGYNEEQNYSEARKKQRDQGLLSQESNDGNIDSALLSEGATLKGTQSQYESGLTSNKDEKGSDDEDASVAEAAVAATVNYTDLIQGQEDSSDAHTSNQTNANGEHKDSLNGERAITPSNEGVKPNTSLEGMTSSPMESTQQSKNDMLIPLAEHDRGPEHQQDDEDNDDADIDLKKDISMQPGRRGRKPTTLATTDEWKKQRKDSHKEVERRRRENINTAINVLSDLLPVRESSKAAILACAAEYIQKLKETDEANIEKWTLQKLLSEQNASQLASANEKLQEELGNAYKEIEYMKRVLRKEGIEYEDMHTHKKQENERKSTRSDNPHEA
Method: protein-binding microarray
Molecule type: double-stranded DNA, one strand shown
Matrix: in vitro
Concentration: 0.8 µM
Setting: whole 60-bp probe, no competitor
Reading: higher = stronger binding
Constant ends, left off below: … GTCTTGATTCGCTTGACGCTGCTG
Strand | fluorescence intensity
GAACCCGTGCTAAGGAAGGTGATGAACTTTGGCTAG | 604 a.u.
TGTACGAAGCTATAGCACGATGGTATAGTAGTTAGG | 557 a.u.
GAATAACGTTATTATATCATGATGTCCGTCATTTAG | 516 a.u.
GAATAATTCTAGGACCACGTTTTGGGCTTCGTCTAG | 611 a.u.
GAAATCACTTTCCGTTGCGTGACTATTGATGATTAG | 748 a.u.
CTAGAAAAATTGCGAGACGTGATTGGTGTATCATTC | 626 a.u.
CTAGTCTGTGATGGTGGTGGCACGCGATAGTACTTC | 701 a.u.
GAATCTTTCTTCTTTCACGTGTTCTTTTTGTCTTAG | 5020 a.u.
CCTAACTACTATAACGTGAAAATATAGCTTCGTACA | 563 a.u.
CTACTTGTTTTACCTCACCTGGTACTACTAGTATTC | 537 a.u.

Block 6
Target: Interferon regulatory factor 5, full length, phosphomimetic (IRF5, Homo sapiens, UniProt Q13568-2, residues 1-514, S451D/S453D/S456D/S462D)
Method: protein-binding microarray
Molecule type: double-stranded DNA, one strand shown
Matrix: in vitro
Concentration: 940 nM top
Setting: 60-bp whole probe
Added: salmon DNA 0.4 mg/ml
Baseline: random background probes
Reading: higher = stronger binding
Constant ends, left off below: GCCTAGCAC … GTCTTGATTCGCTTGACGCTGCTG
Strand | fitted relative affinity [z-score]
GAAGCCAGCTCTTTCGTTACGTGCTAG | 0.117
TCAGTTTTCTCTCCCATACTGTGCTAG | 1.81
GACGATTTCGCGACTGGAGACGTGCTA | -0.0652
GACGGTCTCCTTCTCATGACGTGCTAG | 0.543
GACGGACTGGGTCTCGGCACGTGCTAG | -0.0922
TTAGGTATCGGGACTGGGTCAGTGCTA | 4.34
TTAGGTCTCCGTTTCCTTTAGTGCTAG | 0.551
GACGGTATCCTTTTCCTAACGTGCTAG | 0.56
CAAGTTTGCCTCCTTCAGTCAGTGCTA | 0.42
GACGAGTTCAGTTCCGAGACGTGCTAG | 0.564
TTGGATTTCGGGTATCGATTAGTGCTA | 3.81
GACGTTTTCGACACTGGGGACGTGCTA | 0.837
GACGGTTACCTTTTCCTGACGTGCTAG | 0.59

Block 7
Target: Protein max, full length (MAX, Homo sapiens, UniProt P61244-2, residues 1-151)
Method: protein-binding microarray
Molecule type: double-stranded DNA, one strand shown
Matrix: in vitro
Concentration: not given
Setting: k-mer, scored over probes, only values ≥0.25
Reading: higher = stronger binding
Strand | E-score
ACAATGCG | 0.317
ACGTGCCC | 0.42
ATGCTGCA | 0.315
GTGCGCAC | 0.394
GGTCACAC | 0.268
CATGGGTC | 0.313
CGTGCGTA | 0.317
ATCCACGC | 0.378
CGTGACCA | 0.41
ATCGTGGG | 0.273
GGCATGGA | 0.311
GTGTCACA | 0.251
CCCGCCGC | 0.268
ATGTGAGG | 0.287
CCGCACGA | 0.275
GTGAGCAC | 0.297
ACAGCACG | 0.354
ACTCGTGG | 0.396
GCAGGTGA | 0.286
CCGCGTGA | 0.46
CACGCTGG | 0.449
AGTCACGC | 0.436
CATGGGCA | 0.28

Block 8
Target: RING finger protein unkempt homolog, zinc fingers 1-6, SBP tag (UNK, Homo sapiens, UniProt Q9C0B0, residues 30-357)
Chain of UniProt Q9C0B0 (30-357, looked up): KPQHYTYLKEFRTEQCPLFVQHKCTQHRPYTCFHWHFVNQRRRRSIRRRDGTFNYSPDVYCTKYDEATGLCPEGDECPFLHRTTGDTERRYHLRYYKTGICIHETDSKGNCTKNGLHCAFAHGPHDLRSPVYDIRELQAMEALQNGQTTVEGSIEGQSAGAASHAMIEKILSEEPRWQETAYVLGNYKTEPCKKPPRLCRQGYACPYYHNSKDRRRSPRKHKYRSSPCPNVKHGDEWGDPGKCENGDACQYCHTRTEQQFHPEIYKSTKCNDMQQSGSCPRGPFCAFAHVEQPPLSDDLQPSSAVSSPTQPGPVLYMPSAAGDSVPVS
Method: RNA Bind-n-Seq
Molecule type: RNA
Matrix: in vitro
Concentration: 100 nM
Setting: RNA with constant flanks, vertebrate orthologous sites, ends assumed
Baseline: input RNA pool
Reading: higher = stronger binding
Constant ends, left off below: GGGAGUUCUACAGUCCGACGAUC … CAACAGAGGAUUGAGCAUCA
Strand | bound/input enrichment [ratio]
GGUUGAUGUUCUGAAGAAUCACUUGGUAAAAGAAGGUCGAGUAGAUGAAGAAAUUGCGCUUAGAAUUAUCAACGAAGGUGCUGCCAUCCUUCGGAGAGAGAAAACCAUGAUAGAAGUAGA | 1.05
UUCAUUACUUGAGCCGAGUGGAGGUGACCGAGUUUGAAGACAUCAAGUCGGGCUACAGAAUAGAUUUUUAUUGUAAAGAUGCCCGCGUACGUACAACAUGGAGGUGCUCUGUCUUGUAUU | 0.367
UGGGGUUGGGGGGGGUGGUGGGAAGAAGAUGUAUGGAUGUUACUGGCAUUUUUAACUGUUCAGAACUUUUUUUUCUCCCUCUGUUUUGCUUUUUCCCUUUAAUUGGAUGCACUGACCUGG | 0.828
ACGCUUCGACAUCAAGCUGACAAUCAGCUCGUGACCUCAGCCGCCAUGAGUGCUCGUUCCGAGAUCAAUAAAAUGUAGAGAGAAUAUAAGUUCAGAUAAACGCCACUAGUCUUUGAACAU | 0.225
UAGUGCUUAAGCCAACAGCAGUUCUAAAAUGCUAUUUAUUUGUGUUUGUAAGUUUGUACAUAAUACAAACCUCAUAUUGUUGCUAAGCUUUUUUUUUAAUUGGGGUGUGGGUCAAUUUGA | 2.35
GACGUCUGCUCUAUUACAAAGAUAAGAAACGGUCCCACAAAUUAAAAAAAUAAUAAUAAAUGGCUAUUUUUGAAAUUCAAAUAUUUAAAUUUUGUAAAUCAGCUGCUUAGGACACCAUGU | 0.27

For quick reference, copied from above (block 1):
Strand | E-score
ATCTCCAT | -0.245
ATAATTAT | -0.0561
CCTCTGAC | -0.109
ATTCAAAG | -0.169
TAATACCA | 0.00456
CCTAGGGA | -0.198
CGCCGCTA | 0.429
TATTAGAA | -0.208
ATAGGCAA | -0.183
